Assay results of several laboratories.
Compare with care: the assays were run in different laboratories. Several values in a cell are separate wells, animals, samples, runs or records. ± gives the spread as reported. Values after ≈ are worked out from the molar mass of the structure shown.

`CC[C@H](C)[C@H](NC(=O)[C@H](CCCCN)NC(=O)[C@H](CCCCN)NC(=O)[C@H](CC(C)C)NC(=O)[C@H](Cc1c[nH]c2ccccc12)NC(=O)CN)C(=O)NCC(=O)N[C@@H](CCCCN)C(=O)N[C@@H](CCCCN)C(=O)N[C@H](C(=O)N[C@@H](CCC(=O)O)C(=O)N[C@@H](CCCNC(=N)N)C(=O)N[C@H](C(=O)NCC(=O)N[C@@H](CCC(N)=O)C(=O)N[C@@H](Cc1c[nH]cn1)C(=O)N[C@H](C(=O)N[C@@H](CCCNC(=N)N)C(=O)N[C@@H](CC(=O)O)C(=O)N[C@@H](C)C(=O)N[C@H](C(=O)N[C@H](C(=O)N[C@@H](CCC(N)=O)C(=O)N[C@H](C(=O)N[C@H](C(=O)NCC(=O)N[C@H](C(=O)N[C@@H](C)C(=O)N[C@@H](CCC(N)=O)C(=O)N[C@@H](CCC(N)=O)C(=O)N[C@@H](C)C(=O)N[C@@H](C)C(=O)N[C@@H](CC(N)=O)C(=O)N[C@H](C(=O)N[C@@H](C)C(=O)N[C@@H](C)C(=O)N[C@H](C(=O)N[C@@H](CC(C)C)C(=O)N[C@@H](CCCCN)C(N)=O)[C@@H](C)O)C(C)C)C(C)C)[C@@H](C)CC)[C@@H](C)O)[C@@H](C)CC)[C@@H](C)O)[C@@H](C)O)C(C)C)[C@@H](C)CC` gave an MIC of no less than 64 µg/mL (S. maltophilia, M. morganii, S. fonticola; clinical isolates).
`COC(=O)c1ncn(C2CC(OC(=O)c3ccc(C)cc3)C(COC(=O)c3ccc(C)cc3)O2)c1C(=O)OC` (stereo not drawn) gave an IC50 of 10 µg/mL (Zaire ebolavirus; viral replication, inhibitor; Vero; 72 h).
With `CC(C)CC(C(=O)N1CC2(CC1C#N)C(=O)Nc1ccccc12)N(C)C(=O)c1cc2c(F)cc(F)c(F)c2[nH]1` (stereo not drawn) the inhibition was 99.6% (SARS-CoV-2; viral replication, infectious virus; Vero E6; 3.333 µM).
For `O=C(C=Cc1ccc(O)c(O)c1)OC1CC(O)(C(=O)O)CC(OC(=O)C=Cc2ccc(O)c(O)c2)C1O` (stereo not drawn), the inhibition was 0% (Severe acute respiratory syndrome coronavirus 2; cytopathic effect, inhibitor; Vero C1008; 12.5 µM).
`O=[N+]([O-])c1ccc(-n2nc(-c3ccc(F)cc3)cc2-c2ccc(F)cc2)c([N+](=O)[O-])c1`: “viral RNA reduction” greater than 70% (Japanese encephalitis virus; SA14-14-2, BALB/c mice, spleen; ip, 100 mg/kg/day; baseline: untreated).
For `COC(=O)c1ncn(C2OC(COC(=O)c3ccccc3)C(OC(=O)c3ccccc3)C2OC(=O)c2ccccc2)c1C(=O)OC` (stereo not drawn), the IC50 was 23 µg/mL (Severe acute respiratory syndrome coronavirus; viral replication; Vero; 48 h).
For `CN[C@@H]1[C@H](O)[C@H](NC)[C@H]2O[C@]3(O)[C@H](O[C@@H]2[C@H]1O)O[C@H](C)C[C@@]3(O)CNCc1ccc(Cl)cc1`, “inhibition zone diameter” read 21 to 22 mm (Legionella pneumophila; ATCC 33153; 40 µg per disc, 48 h).
For `Oc1cccc(O)c1-c1c2nc(c(-c3c(O)cccc3O)c3ccc([nH]3)c(-c3c(O)cccc3O)c3nc(c(-c4c(O)cccc4O)c4ccc1[nH]4)C=C3)C=C2`, the EC50 was 0.32 ± 0.11 µg/mL (≈ 0.431 µM) (vaccinia virus; extracellular enveloped virus; BSC-40, IHD-J).
For `C#CCN(Cc1ccc2nc(N)nc(N)c2c1)c1ccc(C(=O)N[C@@H](CCC(=O)O)C(=O)O)cc1`, the MIC was 4.8 µM (Mycobacterium tuberculosis; pptH knockout).
`C[N+]1=C2C(c3ccc([N+](=O)[O-])cc3)=[N+]([O-])c3ccccc3N2CCC1` gave an MIC of no more than 0.06 µg/mL (Clostridium butyricum).
With `COC(=O)CCCC1C2CCCN3CCCC(CN1C(=O)c1ccc(Cl)cc1)C23` (stereo not drawn) the selectivity index was greater than 2.27 (Ebola virus; EBOV GP pseudotyped HIV; baseline: CC50 over IC50).
With `CCCCCCCCCCCCCCCCCCCCCCSCC1OC(OC2C(N)CC(N)C(OC3OC(CN)C(O)CC3N)C2O)C(O)C(N)C1O` (stereo not drawn) the MIC was 18.8 µg/mL (Bacillus anthracis; Sterne 34F2).
`CC(C)=CCc1c(O)ccc(-c2coc3cc(O)cc(O)c3c2=O)c1O` gave a selectivity ratio of greater than 5 (SARS-CoV-2 trVLP; Caco-2-N; baseline: CC50 over EC50).
`[O-][N+]1=C(c2ccccc2)C2=NCCN2c2ccccc21` has an MIC50 of 0.5 µg/mL (≈ 1.9 µM) (Clostridium perfringens; microbial growth).
With `CCN1CCC(CN2c3ccccc3Sc3ccccc32)C1` (stereo not drawn) the EC90 was 11 ± 3.9 µM (SARS coronavirus; Vero 76, Urbani).
`O=C(O)c1ncn(COCCOCc2ccccc2)c1C(=O)O` gave an IC50 of 49 µg/mL (Severe acute respiratory syndrome coronavirus; viral replication; Vero; 48 h).
The inhibition of `COC(=O)c1cc2c(=O)n3ccccc3nc2n1Cc1ccccc1` is reported as 57.3% (Severe acute respiratory syndrome coronavirus 2; viral replication; Vero; 0.1 µM).
`CN1CCN(C(=O)N[C@@H](Cc2ccccc2)C(=O)N[C@H](/C=C/S(=O)(=O)c2ccccc2)CCc2ccccc2)CC1` has an IC50 of greater than 0.1 µM (Junin virus; pseudovirus entry; Vero).
The relative infection of `Cc1ccc(NS(=O)(=O)c2c(C(=O)N3CCCCCC3)c(C)n(C)c2C)c(Cl)c1` is reported as 0% and 1% (Monkeypox virus; Vero C1008, wild type; 0.37 µM, 72 h; baseline: untreated).
`[O-][N+]1=C(c2ccccc2)C2=NCCCN2c2ncccc21` has an MIC of no more than 0.06 µg/mL (Clostridium butyricum).
`CC(=O)OCCOCn1cnc(C#N)c1C#N` has an IC50 of 15 µg/mL (Severe acute respiratory syndrome coronavirus; viral replication; Vero; 48 h).

A few entries again:
For `Oc1cccc(O)c1-c1c2nc(c(-c3c(O)cccc3O)c3ccc([nH]3)c(-c3c(O)cccc3O)c3nc(c(-c4c(O)cccc4O)c4ccc1[nH]4)C=C3)C=C2`, the EC50 was 0.32 ± 0.11 µg/mL (≈ 0.431 µM) (vaccinia virus; extracellular enveloped virus; BSC-40, IHD-J).
For `C#CCN(Cc1ccc2nc(N)nc(N)c2c1)c1ccc(C(=O)N[C@@H](CCC(=O)O)C(=O)O)cc1`, the MIC was 4.8 µM (Mycobacterium tuberculosis; pptH knockout).
`C[N+]1=C2C(c3ccc([N+](=O)[O-])cc3)=[N+]([O-])c3ccccc3N2CCC1` gave an MIC of no more than 0.06 µg/mL (Clostridium butyricum).
